Measurements collected from several papers.
Lines come from different studies, so protocols differ.
Target: Kappa-type opioid receptor (OPRK1, Homo sapiens, UniProt P41145)

| SMILES | read-out | method | pH | setting | Ki [nM] |
| --- | --- | --- | --- | --- | --- |
| CC(=O)N1CCC(NC(=O)C(N)Cc2c(C)cc(O)cc2C)c2cc(CN3CCc4ccccc4C3)ccc21 (stereo not drawn) | ligand displacement | radioligand |  | cell membranes | 0.78 |
| CCCc1cc(Cc2ccccc2)cc2c1NCCC2NC(=O)C(N)Cc1c(C)cc(O)cc1C (stereo not drawn) | ligand displacement | radioligand |  | cell membranes | 98 |
| Cc1cc(O)cc(C)c1CC(N)C(=O)NC1CCNc2ccc(CN3CCCCC3)cc21 (stereo not drawn) | ligand displacement | radioligand |  | cell membranes | 29 |
| Cc1cc(O)cc(C)c1CC(N)C(=O)NC1CCNc2c1cc(Cc1ccccc1)cc2C(F)(F)F (stereo not drawn) | ligand displacement | radioligand |  | cell membranes | 29 |
| Cc1cc(O)cc(C)c1CC(N)C(=O)NC1CCNc2ccc(Cc3ccoc3)cc21 (stereo not drawn) | ligand displacement | radioligand |  | cell membranes | 20 |
| CCCCC(=N)NCc1ccc2[nH]c3c(c2c1)CC1(O)C2Cc4ccc(O)c5c4C1(CCN2CC1CC1)C3O5 (stereo not drawn) | ligand displacement | radioligand |  | cell membranes | 0.27 |
| C[C@@H](Cc1ccsc1)NC(=O)NC[C@H](Cc1ccc(O)cc1)N(C)C | cell-free assay |  |  |  | 24 |
| CC(C)[C@H]1CC[C@H](N2CC[C@@](C)(c3cccc(O)c3)[C@@H](C)C2)CC1 | ligand displacement | radioligand |  |  | 51.5 |
| Cc1cc(O)cc(C)c1CC(N)C(=O)NC1CCNc2c1cc(Cc1ccccc1)cc2C(C)(C)C (stereo not drawn) | ligand displacement | radioligand |  | cell membranes | 48 |
| CC(C)C[C@H](NC(=O)C1(NC(=O)CNC(=O)[C@H](NC(=O)[C@@H](N)Cc2ccc(O)cc2)[C@H](C)O)Cc2ccccc2C1)C(=O)N[C@@H](CO)C(N)=O | ligand displacement | radioligand | pH 7.4 | cell membranes | > 10000 |
| Cc1cc(O)cc(C)c1CC(N)C(=O)NC1CCNc2ccc(Cn3cncn3)cc21 (stereo not drawn) | ligand displacement | radioligand |  | cell membranes | 450 |
| Cc1cc(O)cc(C)c1C[C@H](N)C(=O)N1Cc2ccccc2C[C@H]1CN[C@@H](Cc1ccccc1)C(=O)N[C@@H](Cc1ccccc1)C(N)=O | ligand displacement | radioligand |  | cell membranes | 3.9 |
| Cc1cc(O)cc(C)c1CC(N)C(=O)NC1CCNc2c(C(=O)O)cc(Cc3ccccc3)cc21 (stereo not drawn) | ligand displacement | radioligand |  | cell membranes | 210 |
| Cc1cc(O)cc(C)c1CC(N)C(=O)NC1CCNc2ccc(Cc3cccnc3)cc21 (stereo not drawn) | ligand displacement | radioligand |  | cell membranes | 66 |
| CCNC(=O)c1cc(Cc2ccccc2)cc2c1NCCC2NC(=O)C(N)Cc1c(C)cc(O)cc1C (stereo not drawn) | ligand displacement | radioligand |  | cell membranes | 25 |
| Cc1cc(O)cc(C)c1C[C@H](N)C(=O)N[C@@H](C(=O)NCC(=O)N[C@@H](Cc1ccc2ccccc2c1)C(=O)N[C@@H](CC(C)C)C(=O)N[C@@H](CO)C(N)=O)[C@H](C)O | ligand displacement | radioligand | pH 7.4 | cell membranes | 2.3 |
| Cc1cc(O)cc(C)c1CC(N)C(=O)NC1CCNc2c(Cc3ccccc3)cccc21 (stereo not drawn) | ligand displacement | radioligand |  | cell membranes | 1500 |
| Cc1cc(O)cc(C)c1CC(N)C(=O)NC1CCNc2ccc(CN3CCCCCC3)cc21 (stereo not drawn) | ligand displacement | radioligand |  | cell membranes | 3.6 |

Some of these lines once more:
| SMILES | read-out | method | pH | setting | Ki [nM] |
| --- | --- | --- | --- | --- | --- |
| CC(C)[C@H]1CC[C@H](N2CC[C@@](C)(c3cccc(O)c3)[C@@H](C)C2)CC1 | ligand displacement | radioligand |  |  | 51.5 |
